Measured values of several laboratories.
Every numbered part comes from another study and shows a few of its results, in no order.
UniProt Q9Y3S1, sequence (whole entry, looked up): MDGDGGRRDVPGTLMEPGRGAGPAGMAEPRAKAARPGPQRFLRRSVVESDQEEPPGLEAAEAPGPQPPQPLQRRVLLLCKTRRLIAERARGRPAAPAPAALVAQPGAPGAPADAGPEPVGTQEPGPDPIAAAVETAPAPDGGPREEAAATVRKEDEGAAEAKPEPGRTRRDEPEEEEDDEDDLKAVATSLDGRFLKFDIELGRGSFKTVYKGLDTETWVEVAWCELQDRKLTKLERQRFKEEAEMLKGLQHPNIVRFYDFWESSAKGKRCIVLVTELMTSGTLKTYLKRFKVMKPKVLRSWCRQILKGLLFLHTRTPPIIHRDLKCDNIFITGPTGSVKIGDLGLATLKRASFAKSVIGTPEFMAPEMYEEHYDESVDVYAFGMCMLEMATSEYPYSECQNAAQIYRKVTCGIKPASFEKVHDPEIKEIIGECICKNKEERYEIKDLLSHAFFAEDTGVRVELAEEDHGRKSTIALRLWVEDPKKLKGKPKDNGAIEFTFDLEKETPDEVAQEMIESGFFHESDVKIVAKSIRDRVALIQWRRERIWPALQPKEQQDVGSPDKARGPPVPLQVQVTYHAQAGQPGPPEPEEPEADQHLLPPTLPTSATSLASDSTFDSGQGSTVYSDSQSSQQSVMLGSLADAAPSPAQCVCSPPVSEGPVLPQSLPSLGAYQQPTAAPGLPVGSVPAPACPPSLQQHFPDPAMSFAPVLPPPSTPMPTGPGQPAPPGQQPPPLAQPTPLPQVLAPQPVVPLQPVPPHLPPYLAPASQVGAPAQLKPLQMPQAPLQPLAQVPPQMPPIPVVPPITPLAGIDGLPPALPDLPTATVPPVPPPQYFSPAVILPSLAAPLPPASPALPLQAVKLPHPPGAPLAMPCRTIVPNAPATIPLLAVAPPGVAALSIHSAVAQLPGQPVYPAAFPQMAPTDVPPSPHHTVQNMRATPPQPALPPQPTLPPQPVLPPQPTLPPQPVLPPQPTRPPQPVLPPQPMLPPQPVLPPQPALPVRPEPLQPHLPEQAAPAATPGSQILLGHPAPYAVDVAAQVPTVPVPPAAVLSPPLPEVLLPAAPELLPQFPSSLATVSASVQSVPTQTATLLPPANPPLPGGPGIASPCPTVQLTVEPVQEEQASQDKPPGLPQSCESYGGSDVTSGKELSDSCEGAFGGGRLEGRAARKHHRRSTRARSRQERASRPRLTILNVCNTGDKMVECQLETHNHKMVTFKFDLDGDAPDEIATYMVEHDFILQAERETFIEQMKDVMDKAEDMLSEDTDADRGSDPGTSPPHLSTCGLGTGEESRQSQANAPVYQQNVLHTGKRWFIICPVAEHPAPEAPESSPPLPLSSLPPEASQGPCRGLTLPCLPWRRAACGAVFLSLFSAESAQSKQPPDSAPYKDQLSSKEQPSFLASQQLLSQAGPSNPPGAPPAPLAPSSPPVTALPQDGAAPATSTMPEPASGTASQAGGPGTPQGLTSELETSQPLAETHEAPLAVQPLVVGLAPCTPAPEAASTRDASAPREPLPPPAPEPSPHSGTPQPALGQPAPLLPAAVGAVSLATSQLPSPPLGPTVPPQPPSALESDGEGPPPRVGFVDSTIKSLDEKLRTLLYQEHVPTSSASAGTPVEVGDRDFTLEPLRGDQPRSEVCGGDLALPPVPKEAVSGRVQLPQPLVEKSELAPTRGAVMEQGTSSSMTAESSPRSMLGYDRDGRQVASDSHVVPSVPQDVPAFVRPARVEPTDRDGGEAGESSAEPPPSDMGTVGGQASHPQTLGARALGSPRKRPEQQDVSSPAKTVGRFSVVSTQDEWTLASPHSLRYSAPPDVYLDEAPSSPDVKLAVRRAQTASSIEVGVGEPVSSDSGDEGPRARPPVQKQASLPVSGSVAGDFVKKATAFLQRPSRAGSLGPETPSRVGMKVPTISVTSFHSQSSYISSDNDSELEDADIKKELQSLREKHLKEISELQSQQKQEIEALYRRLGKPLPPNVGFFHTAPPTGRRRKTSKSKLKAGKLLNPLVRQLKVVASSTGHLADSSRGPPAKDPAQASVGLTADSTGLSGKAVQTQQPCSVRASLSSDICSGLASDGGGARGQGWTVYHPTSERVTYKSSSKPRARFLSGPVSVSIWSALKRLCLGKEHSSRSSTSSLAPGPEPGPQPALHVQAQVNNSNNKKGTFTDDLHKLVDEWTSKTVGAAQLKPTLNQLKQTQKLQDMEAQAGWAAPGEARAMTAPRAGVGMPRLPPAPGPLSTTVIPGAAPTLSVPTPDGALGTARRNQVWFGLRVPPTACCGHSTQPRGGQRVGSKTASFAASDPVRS
UniProt P49336, sequence (whole entry, looked up): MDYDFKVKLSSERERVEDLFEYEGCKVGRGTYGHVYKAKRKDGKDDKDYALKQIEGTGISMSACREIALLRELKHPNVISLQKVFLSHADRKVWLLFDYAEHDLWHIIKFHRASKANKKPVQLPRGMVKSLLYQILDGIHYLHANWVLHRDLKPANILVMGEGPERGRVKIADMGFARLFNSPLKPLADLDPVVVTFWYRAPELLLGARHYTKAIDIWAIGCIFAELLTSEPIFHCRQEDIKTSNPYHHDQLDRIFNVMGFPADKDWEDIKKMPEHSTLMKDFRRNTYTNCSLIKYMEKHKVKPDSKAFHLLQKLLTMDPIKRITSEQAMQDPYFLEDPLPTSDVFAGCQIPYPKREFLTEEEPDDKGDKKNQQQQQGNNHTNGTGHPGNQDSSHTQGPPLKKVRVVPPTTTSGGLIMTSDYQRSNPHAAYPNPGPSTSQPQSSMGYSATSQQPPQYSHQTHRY
UniProt Q12851, sequence (whole entry, looked up): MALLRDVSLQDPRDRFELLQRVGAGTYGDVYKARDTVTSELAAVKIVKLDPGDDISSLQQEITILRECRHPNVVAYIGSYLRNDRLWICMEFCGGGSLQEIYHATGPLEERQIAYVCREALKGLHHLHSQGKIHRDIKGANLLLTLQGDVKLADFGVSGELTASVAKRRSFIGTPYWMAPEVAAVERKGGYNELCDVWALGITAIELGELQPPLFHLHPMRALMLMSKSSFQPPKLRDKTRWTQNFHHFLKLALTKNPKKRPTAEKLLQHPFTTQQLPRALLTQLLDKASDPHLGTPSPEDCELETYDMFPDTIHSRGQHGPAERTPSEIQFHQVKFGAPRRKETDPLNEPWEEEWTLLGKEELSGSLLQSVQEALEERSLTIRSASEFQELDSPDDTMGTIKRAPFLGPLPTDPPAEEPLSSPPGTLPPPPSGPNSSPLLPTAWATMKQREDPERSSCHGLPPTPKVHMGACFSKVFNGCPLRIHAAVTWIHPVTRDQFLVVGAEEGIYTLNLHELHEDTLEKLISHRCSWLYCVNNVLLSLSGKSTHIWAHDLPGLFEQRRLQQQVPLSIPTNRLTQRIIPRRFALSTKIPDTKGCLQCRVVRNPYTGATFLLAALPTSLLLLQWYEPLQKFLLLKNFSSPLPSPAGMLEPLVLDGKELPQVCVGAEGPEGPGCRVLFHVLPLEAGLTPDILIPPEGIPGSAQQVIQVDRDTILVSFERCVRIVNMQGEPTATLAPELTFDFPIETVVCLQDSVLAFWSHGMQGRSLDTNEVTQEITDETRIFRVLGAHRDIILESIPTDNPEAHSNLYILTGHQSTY
UniProt Q13976, sequence (whole entry, looked up): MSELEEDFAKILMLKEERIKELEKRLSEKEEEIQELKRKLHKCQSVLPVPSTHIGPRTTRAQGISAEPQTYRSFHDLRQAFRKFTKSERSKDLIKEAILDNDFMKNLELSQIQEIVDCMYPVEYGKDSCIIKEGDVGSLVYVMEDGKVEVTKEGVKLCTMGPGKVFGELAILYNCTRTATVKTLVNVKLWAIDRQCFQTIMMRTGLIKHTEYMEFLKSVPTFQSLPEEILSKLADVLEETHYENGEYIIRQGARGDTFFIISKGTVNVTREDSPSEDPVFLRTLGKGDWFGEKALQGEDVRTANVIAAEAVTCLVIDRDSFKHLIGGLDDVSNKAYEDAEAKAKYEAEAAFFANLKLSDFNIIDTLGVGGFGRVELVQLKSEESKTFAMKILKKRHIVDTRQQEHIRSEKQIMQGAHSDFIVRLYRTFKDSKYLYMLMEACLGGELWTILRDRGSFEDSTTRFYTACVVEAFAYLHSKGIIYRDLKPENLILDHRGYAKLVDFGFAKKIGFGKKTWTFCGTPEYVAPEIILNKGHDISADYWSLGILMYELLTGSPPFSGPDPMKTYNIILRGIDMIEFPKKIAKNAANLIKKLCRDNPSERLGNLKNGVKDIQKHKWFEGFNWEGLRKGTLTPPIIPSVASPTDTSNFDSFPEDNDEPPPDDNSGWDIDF
UniProt O15264, sequence (whole entry, looked up): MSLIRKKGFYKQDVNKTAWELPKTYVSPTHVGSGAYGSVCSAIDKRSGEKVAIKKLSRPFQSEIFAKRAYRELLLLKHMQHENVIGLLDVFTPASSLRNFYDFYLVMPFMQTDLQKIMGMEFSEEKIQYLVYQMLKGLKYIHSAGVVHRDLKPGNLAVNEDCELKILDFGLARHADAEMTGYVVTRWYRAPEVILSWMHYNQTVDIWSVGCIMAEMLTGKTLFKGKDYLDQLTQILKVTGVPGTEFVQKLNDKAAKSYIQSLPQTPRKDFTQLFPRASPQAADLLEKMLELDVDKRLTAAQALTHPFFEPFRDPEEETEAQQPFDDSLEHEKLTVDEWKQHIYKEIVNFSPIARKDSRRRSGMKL

Block 1
Target: Beta-1 adrenergic receptor (ADRB1, Homo sapiens, UniProt P08588)
UniProt P08588, sequence (whole entry, looked up): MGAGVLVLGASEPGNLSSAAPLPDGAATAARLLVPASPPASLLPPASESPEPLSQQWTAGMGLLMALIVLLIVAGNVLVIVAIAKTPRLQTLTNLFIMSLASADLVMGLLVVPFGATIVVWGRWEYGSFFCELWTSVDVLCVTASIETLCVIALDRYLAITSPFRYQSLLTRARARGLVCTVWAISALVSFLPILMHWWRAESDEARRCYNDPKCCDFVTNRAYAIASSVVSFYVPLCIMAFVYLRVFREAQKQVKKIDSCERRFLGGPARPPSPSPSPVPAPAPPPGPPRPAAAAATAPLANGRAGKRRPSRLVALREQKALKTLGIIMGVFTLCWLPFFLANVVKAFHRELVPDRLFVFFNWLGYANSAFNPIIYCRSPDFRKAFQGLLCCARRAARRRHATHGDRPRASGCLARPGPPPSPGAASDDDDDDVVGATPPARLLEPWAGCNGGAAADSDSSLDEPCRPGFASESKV
Action: agonist
Structure (SMILES)	EC50 [µM]
O=C1COC[C@H]([C@H](O)c2ccc(NC(=O)c3ccc(C(F)(F)F)cc3)cc2)N1	≥ 100
O=C(O)COc1ccc(-c2nccc3c2C(=O)N(Cc2c[nH]c4ccccc24)CC(COc2cccc(N4CCOCC4)c2)O3)cc1 (stereo not shown)	≥ 100
Oc1ccccc1N1CCN(c2ccc3ccccc3n2)CC1	≥ 100
C/C=C(/C)c1c(Cl)c(O)c(C)c2c1Oc1c(Cl)c(O)c(Cl)c(C)c1C(=O)O2	≥ 100
CC(=O)NC(Cc1ccc(I)cc1)C(=O)NCC(N)C(=O)c1ccccc1 (stereo not shown)	≥ 100
OC(CN1CCN(c2cccc(Cl)c2)CC1)C(c1ccccc1)c1ccccc1 (stereo not shown)	≥ 100
Cc1noc2c(NC(C)C)cc(-c3ccccc3)nc12	≥ 100
CCN(CC)c1ccc(C2=C(Cl)C(=O)c3ncccc3C2=O)cc1	≥ 100
Cc1ccn(-c2ccc(NCC(O)C3CCCCC3)nn2)n1 (stereo not shown)	≥ 100
Cc1cc(C)n(-c2cccc(NC(=O)Cc3noc4ccccc34)c2)n1	≥ 100
COc1ccc(Nc2n[nH]c(C(O)c3ccccc3)n2)cc1OC (stereo not shown)	≥ 100
C=CCn1c(=O)c2cnc(Nc3ccc(N4CCN(C)CC4)cc3)nc2n1-c1cccc(C(C)(C)O)n1	≥ 100
O=C1OC2(c3ccc(O)cc3Oc3cc(O)ccc32)c2ccc(N=C=S)cc21	≥ 100
CN(C(=O)c1sc2nc(-c3cccs3)cc(C(F)(F)F)c2c1N)c1ccc(F)cc1	≥ 100
CN(C)c1cccc(-c2nccc3c(=O)cc(N(C)C4CCOCC4)oc23)c1	≥ 100

Block 2
SMILES: Cc1ccc(NC2=CC(=O)c3sc(C)nc3C2=O)cc1
Read-out: enzyme activity
Action: inhibitor
Tested at: 0.5 µM
Relative to: control
target	remaining activity [%]
AKT3 (Homo sapiens, UniProt Q9Y243)	92.8
PLK2 (Homo sapiens, UniProt Q9NYY3)	95.1
EPHA5 (Homo sapiens, UniProt P54756)	98.2
CSNK2A1 (Homo sapiens, UniProt P68400)	98.2
MAP3K10 (Homo sapiens, UniProt Q02779)	94.6
MAPK13 (Homo sapiens, UniProt O15264)	105
CHEK1 (Homo sapiens, UniProt O14757)	91.1
LYN (Homo sapiens, UniProt P07948)	106
CSNK1A1 (Homo sapiens, UniProt P48729)	106
NEK4 (Homo sapiens, UniProt P51957)	95.3
LRRK2 (Homo sapiens, UniProt Q5S007)	102
IRAK4 (Homo sapiens, UniProt Q9NWZ3)	124
MKNK2 (Homo sapiens, UniProt Q9HBH9)	89
WNK2 (Homo sapiens, UniProt Q9Y3S1)	97.7
PRKCD (Homo sapiens, UniProt Q05655)	104
MAP2K6 (Homo sapiens, UniProt P52564)	90.4
MAP4K2 (Homo sapiens, UniProt Q12851)	104
PRKG1 (Homo sapiens, UniProt Q13976)	104
MAPK12 (Homo sapiens, UniProt P53778)	99.3
BTK (Homo sapiens, UniProt Q06187)	99.2
KIT (Homo sapiens, UniProt P10721)	74.7
Cyclin-dependent kinase 9, with cyclin T1 (CDK9, Homo sapiens, UniProt P50750)	97.6

Block 3
SMILES: O=C(O)c1cc(-c2ccc(C3CCNCC3)cc2)c2ccc(-c3ccc(C(F)(F)F)cc3)cc2c1
Read-out: cell-free assay
Method: competition with immobilised ligand
Tested at: 1 µM
target	remaining binding [%]
PRKCH (Homo sapiens, UniProt P24723)	100
PHKG2 (Homo sapiens, UniProt P15735)	100
MAP3K2 (Homo sapiens, UniProt Q9Y2U5)	100
IRAK1 (Homo sapiens, UniProt P51617)	100
PIM2 (Homo sapiens, UniProt Q9P1W9)	100
EGFR (Homo sapiens, UniProt P00533)	100
TIE1 (Homo sapiens, UniProt P35590)	100
MAP3K13 (Homo sapiens, UniProt O43283)	100
Ribosomal protein S6 kinase alpha-1, C-terminal kinase domain (RPS6KA1, Homo sapiens, UniProt Q15418)	100
MAP2K3 (Homo sapiens, UniProt P46734)	100
CAMKK1 (Homo sapiens, UniProt Q8N5S9)	100
STK25 (Homo sapiens, UniProt O00506)	100
MARK2 (Homo sapiens, UniProt Q7KZI7)	100
CASK (Homo sapiens, UniProt O14936)	100
NIM1K (Homo sapiens, UniProt Q8IY84)	94
TSSK3 (Homo sapiens, UniProt Q96PN8)	100
WNK2 (Homo sapiens, UniProt Q9Y3S1)	100
FGFR3 (Homo sapiens, UniProt P22607, G697C)	100
CDK8 (Homo sapiens, UniProt P49336)	100
RET (Homo sapiens, UniProt P07949, V804L)	88
AXL (Homo sapiens, UniProt P30530)	100
FYN (Homo sapiens, UniProt P06241)	100
Ribosomal protein S6 kinase alpha-5, N-terminal kinase domain (RPS6KA5, Homo sapiens, UniProt O75582)	100
MINK1 (Homo sapiens, UniProt Q8N4C8)	98
MAST1 (Homo sapiens, UniProt Q9Y2H9)	100

Block 4
Compound: CC(C)n1cnc(-c2ccc(F)cc2)c1-c1ncc(C(=O)Nc2ccc(N3CCN(C)CC3)cc2)[nH]1
test	system	setting	patients with TEAE
phase 2a trial	idiopathic pulmonary fibrosis patients	oral, dose not given, ESR increased, grade 2, all arms	0%
phase 2a trial	idiopathic pulmonary fibrosis patients	oral, dose not given, LDL increased, grade 3, all arms	0%
phase 2a trial	patients with idiopathic pulmonary fibrosis	30 mg once daily, free thyroxine decreased, grade 5	0%
phase 2a trial	idiopathic pulmonary fibrosis patients	oral, 30 mg once daily, blood/lymphatic disorders, grade 2	0%
phase 2a trial	idiopathic pulmonary fibrosis patients	oral, 60 mg once daily, urine red cells, grade 1	1%
phase 2a trial	idiopathic pulmonary fibrosis patients	oral, dose not given, GLDH increased, grade 4, all arms	0%
phase 2a trial	patients with idiopathic pulmonary fibrosis	60 mg once daily, eye swelling, grade 3	0%
phase 2a trial	idiopathic pulmonary fibrosis patients	oral, 30 mg once daily, LDL increased, grade 2	0%
phase 2a trial	idiopathic pulmonary fibrosis patients	oral, 60 mg once daily, GLDH increased, grade 4	0%
phase 2a trial	idiopathic pulmonary fibrosis patients	oral, dose not given, LDL increased, grade 4, all arms	0%
phase 2a trial	patients with idiopathic pulmonary fibrosis	dose not given, endocrine disorders SOC, grade 5, all arms	0%
measured: eye swelling	idiopathic pulmonary fibrosis patients	60 mg once daily	0%
measured: CA19-9 increased	idiopathic pulmonary fibrosis patients	30 mg once daily	0%
phase 2a trial	patients with idiopathic pulmonary fibrosis	30 mg once daily, nervous system disorders SOC, grade 2	0%

Repeated from above (block 3):
target	remaining binding [%]
FGFR3 (Homo sapiens, UniProt P22607, G697C)	100
CDK8 (Homo sapiens, UniProt P49336)	100
RET (Homo sapiens, UniProt P07949, V804L)	88
AXL (Homo sapiens, UniProt P30530)	100
FYN (Homo sapiens, UniProt P06241)	100
